Measured values gathered from unrelated publications.
Each line is one published result; not all experiments were run side by side. “And” joins repeats or separate records; there may be more than shown.
RET: Proto-oncogene tyrosine-protein kinase receptor Ret (RET, Homo sapiens, UniProt P07949)

Compound | target | test | conditions | scale | quantity | value
C[C@H]1CN(C(=O)c2cn(-c3ccnc(N)n3)c3cc(C#CC4(O)CCCCC4)ccc23)CCN1 | RET | enzyme activity, inhibitor, FRET | 1 µM |  | inhibition | 3%
C=C1CCCCCCCCCC(CO)C1=O (stereo not shown) | RET | cell-free assay | 10 µM |  | remaining signal | 100%
Cc1cccc(O[C@H]2CCC[C@@H](C(C)CNCc3ccncc3)C2)c1 (relative stereo) | RET | cell-free assay | 1 µM |  | inhibition | 8%
COc1ccc(S(=O)(=O)N2CCc3ccccc3C2)cc1N1CCN(C(=O)c2ccc(F)cc2C(F)(F)F)CC1 | RET | enzyme activity, inhibitor | 1 µM |  | inhibition | -11.6%
C=CC(=O)Nc1cccc(-c2cnc3[nH]cc(C(=O)NC(C)(C)C)c3n2)c1 | RET | kinase activity | 0.1 µM |  | inhibition | 26% and 30%
CN1CCN(c2ccc(Nc3ncc(Cl)c(Nc4ccccc4P(C)(C)=O)n3)cc2Br)CC1 | RET | enzyme activity, inhibitor | 0.1 µM |  | inhibition | 100%
CN1CCN(Cc2ccc(-c3ccc(CO[C@H]4CCC[C@@H]4NC(=O)c4cc(-c5cnn(C)c5)cnc4N)cc3)cc2)CC1 | RET | enzyme activity, inhibitor | 0.1 µM |  | inhibition | 0%
O=C=[N][Ru-4]123([n]4c5ccc(O)cc5c5c6c(c7cc(F)c[n+]1c7c54)C(=O)NC6=O)[S+]1CC[S+]2CC[S+]3CC1 (stereo not shown) | RET (Homo sapiens, UniProt P07949, V804M) | enzyme activity | 100 nM, human enzyme, together with: 10 µM ATP | relative to: untreated | remaining activity | 28%
NC(=O)[C@@H](O)C[C@H]1CCc2sc3ncnc(O[C@H]4CC[C@H](N5CCOCC5)CC4)c3c21 | RET | enzyme activity, inhibitor | 10 µM |  | inhibition | 35%
C=CC(=O)N1Cc2nc(-c3cc(-c4cc(Cl)cnc4Cl)c(F)cc3F)n(-c3ccncn3)c2C1 | RET | cell-free assay | 1 µM |  | inhibition | 3.1%
COc1ccc(NC(=O)Nc2ccc3c(c2)C(=O)N(C(C)CO)CC(C)C(CN(C)Cc2ccc4c(c2)OCO4)O3)cc1 (stereo not shown) | RET (Homo sapiens, UniProt P07949, V804L) | kinase activity | 0.03 µM, V804L | relative to: control | remaining activity | 83%
CNC(=O)C[C@H](Cc1ccc(C#N)cc1)NC(=O)c1cc(-c2ccc(CN[C@H](C)c3ccc(C)cc3)o2)ccc1Cl | RET | enzyme activity, inhibitor | 1 µM |  | activity vs control | 95%
O=C(Cc1ccc(OCc2ccccc2)cc1)NC1(C(=O)O)CCN(C(=O)c2ccc(-c3cccc(Cl)c3)cc2)CC1 | RET | enzyme activity, inhibitor | 10 µM |  | activity vs control | 96%
